Measurements pooled from the literature.
Compare with care: the assays were run in different laboratories. “And” joins repeats or separate records; there may be more than shown. ± gives the spread as reported.
ABCB1: ATP-dependent translocase ABCB1 (ABCB1, Homo sapiens, UniProt P08183)
Sequence of UniProt P08183 (whole entry, looked up): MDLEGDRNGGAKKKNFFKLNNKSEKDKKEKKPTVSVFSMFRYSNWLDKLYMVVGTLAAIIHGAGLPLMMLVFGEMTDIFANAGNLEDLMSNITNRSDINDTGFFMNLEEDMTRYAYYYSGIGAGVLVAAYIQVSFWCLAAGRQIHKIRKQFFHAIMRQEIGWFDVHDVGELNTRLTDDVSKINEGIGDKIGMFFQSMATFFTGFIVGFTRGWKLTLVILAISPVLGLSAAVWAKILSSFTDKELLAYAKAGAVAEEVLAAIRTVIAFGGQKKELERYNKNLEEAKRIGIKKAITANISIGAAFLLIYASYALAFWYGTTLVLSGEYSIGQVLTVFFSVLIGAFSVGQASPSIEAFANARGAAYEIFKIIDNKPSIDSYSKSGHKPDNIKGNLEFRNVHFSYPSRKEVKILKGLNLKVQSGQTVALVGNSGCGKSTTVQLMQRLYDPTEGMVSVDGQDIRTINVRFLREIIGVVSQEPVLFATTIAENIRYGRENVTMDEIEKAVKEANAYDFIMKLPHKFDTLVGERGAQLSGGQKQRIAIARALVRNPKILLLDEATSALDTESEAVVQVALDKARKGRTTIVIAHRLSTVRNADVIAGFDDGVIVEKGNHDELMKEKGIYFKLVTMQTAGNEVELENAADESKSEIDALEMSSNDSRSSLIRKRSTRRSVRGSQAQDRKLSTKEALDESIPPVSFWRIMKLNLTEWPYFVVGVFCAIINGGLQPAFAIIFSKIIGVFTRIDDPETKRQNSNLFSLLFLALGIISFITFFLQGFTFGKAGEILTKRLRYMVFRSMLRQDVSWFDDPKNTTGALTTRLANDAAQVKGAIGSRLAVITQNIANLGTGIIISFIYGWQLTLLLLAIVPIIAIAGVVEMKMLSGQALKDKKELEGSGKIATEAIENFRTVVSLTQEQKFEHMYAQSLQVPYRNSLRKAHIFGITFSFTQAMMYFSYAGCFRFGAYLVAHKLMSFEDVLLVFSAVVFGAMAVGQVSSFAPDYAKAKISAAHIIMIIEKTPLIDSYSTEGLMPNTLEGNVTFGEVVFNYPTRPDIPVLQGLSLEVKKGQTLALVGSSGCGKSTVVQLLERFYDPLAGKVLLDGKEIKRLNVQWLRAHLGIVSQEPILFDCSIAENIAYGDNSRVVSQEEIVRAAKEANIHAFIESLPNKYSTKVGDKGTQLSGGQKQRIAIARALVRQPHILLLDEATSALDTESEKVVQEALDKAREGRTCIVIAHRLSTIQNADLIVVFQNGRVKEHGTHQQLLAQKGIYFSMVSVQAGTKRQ
ALB: Albumin (ALB, Homo sapiens, UniProt P02768)
Sequence of UniProt P11712 (whole entry, looked up): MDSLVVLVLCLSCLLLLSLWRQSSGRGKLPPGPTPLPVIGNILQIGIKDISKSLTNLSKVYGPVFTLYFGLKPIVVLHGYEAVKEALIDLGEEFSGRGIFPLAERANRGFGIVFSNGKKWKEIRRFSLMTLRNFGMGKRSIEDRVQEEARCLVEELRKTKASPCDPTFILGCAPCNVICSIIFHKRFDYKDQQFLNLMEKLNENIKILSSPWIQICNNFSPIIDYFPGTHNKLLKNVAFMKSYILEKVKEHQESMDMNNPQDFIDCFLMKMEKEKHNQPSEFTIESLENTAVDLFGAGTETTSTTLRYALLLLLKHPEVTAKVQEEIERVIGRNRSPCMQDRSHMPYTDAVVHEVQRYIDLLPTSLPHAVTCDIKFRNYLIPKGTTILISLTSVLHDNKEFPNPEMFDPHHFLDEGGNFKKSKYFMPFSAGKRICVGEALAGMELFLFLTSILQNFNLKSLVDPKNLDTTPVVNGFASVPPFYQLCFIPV

The efflux ratio of `CNc1nc(N)nc2c1ncn2[C@@H]1O[C@H](CO[P@](=O)(O)N[C@@H](C)C(=O)O)[C@@H](O)[C@@]1(C)F` is reported as 1.01 ± 0.1 (ABCB1; bidirectional transport; LLC-PK1, human MDR1, transfected with; 10 µM).
With `CN1CCN(c2ccc3[nH]c(-c4ccc5[nH]c(-c6ccc(OCCCCNC(=O)c7ccc8c(c7)C(=O)OC87c8ccc(N(C)C)cc8C(C)(C)c8cc(N(C)C)ccc87)cc6)nc5c4)nc3c2)CC1` the Kd was over 1000 µM (ALB; binding, second site, fluorescence titration; PBS).
The fraction unbound of `Cc1ccc(NC(=O)NCc2ccc3c(c2)CN(C2CCC(=O)NC2=O)C3=O)cc1Cl` (stereo not drawn) is reported as 0.005 (ALB; equilibrium dialysis; human serum albumin 50 mg/mL; 6 h, 37 °C).
The Kd of `CN(C)c1ccc2c(c1)[Si](C)(C)c1cc(N(C)C)ccc1C21OC(=O)c2ccc(C(=O)O)cc21` is reported as 84 ± 9 µM (ALB; binding, fluorescence titration; PBS).
Under “Papp B to A”, `CNc1nc(N)nc2c1ncn2[C@@H]1O[C@H](CO)[C@@H](O)[C@@]1(C)F` is recorded as 21.7 ± 1 ×10⁻⁶ cm/s (ABCB1; bidirectional transport; LLC-PK1, human MDR1, transfected with; 10 µM).
For `C=CC(=O)Nc1cc(Nc2nccc(-c3cn(C)c4ccccc34)n2)c(OCC(F)(F)F)nc1N(C)CCN(C)C`, “relative enzyme activity” read 9.29 (CYP1A2 human; inducer; hepatocytes lot HC3-31; 10 µM; baseline: DMSO).
With `CN1CCN(c2ccc3[nH]c(-c4ccc5[nH]c(-c6ccc(OCCCCNC(=O)c7cccc8c7C(=O)OC87c8ccc(N(C)C)cc8C(C)(C)c8cc(N(C)C)ccc87)cc6)nc5c4)nc3c2)CC1` the Kd was 57 ± 7 µM (ALB; binding, fluorescence titration; PBS; 1 h).
With `CNC(=O)C1CCCN(C(=O)C2CC3CCC2N3C(=O)[C@@H]2C[C@@H](O)CN2C(=O)NCc2cccc(Cl)c2F)C1` (mixture of isomers) the remaining activity was 99.4% and 101% and 122% (Cytochrome P450 2C9 (CYP2C9, Homo sapiens, UniProt P11712); preincubation with NADPH; human; 0.206 µM; baseline: negative control).
For `C/C(N)=N/C(=N\S(=O)(=O)c1ccc(C(F)(F)F)cc1)N1C[C@H](c2ccccc2)C(c2ccc(Cl)cc2)=N1`, the Papp A→B was 11 ×10⁻⁶ cm/s (ABCB1; MDCK-MDR1; 5 µM, 2 h, pH 7.4).

For quick reference, copied from above:
For `C/C(N)=N/C(=N\S(=O)(=O)c1ccc(C(F)(F)F)cc1)N1C[C@H](c2ccccc2)C(c2ccc(Cl)cc2)=N1`, the Papp A→B was 11 ×10⁻⁶ cm/s (ABCB1; MDCK-MDR1; 5 µM, 2 h, pH 7.4).
